Assay results of several laboratories.
Parts stem from different laboratories: compare values within a part only.

Block 1 — method: universal PBM; form: double-stranded DNA, one strand shown; sample: in vitro; concentration: 600 nM; reading: higher = stronger binding
Target: Sal-like protein 4, full length isoform A (SALL4, Homo sapiens, UniProt Q9UJQ4, residues 1-1053)
UniProt Q9UJQ4, sequence (whole entry, looked up): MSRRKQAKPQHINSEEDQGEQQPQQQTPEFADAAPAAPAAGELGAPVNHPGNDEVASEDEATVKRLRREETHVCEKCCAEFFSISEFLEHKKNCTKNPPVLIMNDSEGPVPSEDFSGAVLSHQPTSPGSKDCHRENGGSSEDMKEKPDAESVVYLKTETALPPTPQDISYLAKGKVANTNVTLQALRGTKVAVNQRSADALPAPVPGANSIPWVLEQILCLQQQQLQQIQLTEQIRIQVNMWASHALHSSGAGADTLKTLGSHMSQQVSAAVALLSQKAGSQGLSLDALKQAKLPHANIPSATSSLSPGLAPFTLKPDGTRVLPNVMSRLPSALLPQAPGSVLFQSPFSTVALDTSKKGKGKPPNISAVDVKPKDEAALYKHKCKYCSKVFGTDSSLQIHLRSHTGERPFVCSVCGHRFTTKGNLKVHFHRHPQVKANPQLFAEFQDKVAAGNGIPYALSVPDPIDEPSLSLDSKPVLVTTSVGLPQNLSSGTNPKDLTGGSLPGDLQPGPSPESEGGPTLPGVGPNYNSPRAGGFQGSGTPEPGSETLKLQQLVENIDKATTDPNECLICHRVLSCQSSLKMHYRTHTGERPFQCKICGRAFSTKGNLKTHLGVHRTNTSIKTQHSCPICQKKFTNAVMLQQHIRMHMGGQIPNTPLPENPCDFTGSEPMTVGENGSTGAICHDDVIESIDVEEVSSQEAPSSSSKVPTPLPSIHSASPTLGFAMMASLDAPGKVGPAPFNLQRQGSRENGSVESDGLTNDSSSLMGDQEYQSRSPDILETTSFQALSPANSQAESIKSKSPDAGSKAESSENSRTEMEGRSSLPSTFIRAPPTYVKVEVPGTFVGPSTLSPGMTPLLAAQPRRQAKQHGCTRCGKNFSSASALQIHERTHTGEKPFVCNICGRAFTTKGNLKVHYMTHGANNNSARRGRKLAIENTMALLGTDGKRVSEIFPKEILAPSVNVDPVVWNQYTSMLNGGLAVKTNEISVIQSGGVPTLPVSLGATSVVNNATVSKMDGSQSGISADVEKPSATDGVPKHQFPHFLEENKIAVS
Setting: 8-mer, flanks averaged, mean of replicates
Sequence | E-score
ATGACGAG | -0.0389
AGAAAGCC | -0.0333
CGACCGGA | -0.373
ATTGTTAG | 0.257
AGCAGAGA | -0.0477
AGCTGGTC | -0.113
CAAAACAG | 0.102
CCTGGCAC | -0.181
ATAGCTTA | 0.22
ACTGTGCG | -0.153
AGGGCAGG | -0.259
ACGCCATG | -0.0378
AAGAAGAG | 0.0749
GGTGTCAA | -0.129
AGGAATCG | -0.153
ATAATGCG | 0.278
AGCAGCAG | -0.145
AGCTAGCG | -0.281
CGGCGAAG | -0.219
ATTGGCGA | 0.104
AAGGTCGG | -0.0902
GACATATC | 0.201
TGGGTAAA | -0.0587

Block 2 — method: RNA Bind-n-Seq; form: RNA; sample: in vitro; concentration: 365 nM; baseline: no-protein control; reading: higher = stronger binding
Target: RNA binding protein fox-1 homolog 2, RRM domain, GST-SBP tag (RBFOX2, Homo sapiens, UniProt O43251-10, residues 100-194)
Setting: natural RNA segment, single round, ends assumed
Target sequence (chain): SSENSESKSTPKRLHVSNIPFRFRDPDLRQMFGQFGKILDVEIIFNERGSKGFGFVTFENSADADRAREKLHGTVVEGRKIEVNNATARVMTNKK
Sequence | RBNS enrichment (R)
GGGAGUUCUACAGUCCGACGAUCCUGCUGGCUCUCCCCCAGCCCCACAUCCCCUCUGGAAGAGAAUGUAAAAUAAACCUGGACACAAGGGACCUUGUCUCUGCGGCCUUUUCCUUGGGGUAGGGGAUGCCUCCUGGAAUUCUCGGGUGCCAA | 0.398
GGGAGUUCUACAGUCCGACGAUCAACUUUCUGGUUUCUGUCUCUGUGCUCUGACUUUUUGAUUUCAGGUCUAGCCCUGUGCACUUACCUCAGUACUCAGUACUUACUCAGUACUAACUCAGUACUCGUGGGAGUGGAAUUCUCGGGUGCCAA | 0.291
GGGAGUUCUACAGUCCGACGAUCCCAAUAAAACCUUUAGAUUCUGGUGAAGCCAGAGCCUCUCCACAGUGGCUAAGGUUGUUGUUGAUCUUUUUCUCCUUUGUGUGAUCAUCACAGAUGCCAUUUCUGUUUUAUGGAAUUCUCGGGUGCCAA | 0.32
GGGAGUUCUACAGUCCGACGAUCUGCAAAGCACCUGGAGAUGUUUGCUGGGAGAUAGACUCCCACUCCACAAAGGUGCUGGGUGGCUCUCCGGACAGGAGCUGGCCUGACUCUCACUCCUCUGAGGCUUUCCUUGGAAUUCUCGGGUGCCAA | 5.19
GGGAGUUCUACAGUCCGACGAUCCUGGUGGCCAAGGUGGGCAGUAGGCAUGAGCUUCCAGCAGGAAAGGACAAGAGAGUAGGCAGGCUUACAGGUGCAGACUGAGUGCUUCUCCGCCUGCCCUCUUCCCCUUGUGGAAUUCUCGGGUGCCAA | 4.21
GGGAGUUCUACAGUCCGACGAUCCUCAGACUCCUGUGAAGGCACAGCUACAGUUGUGGCCUGAAGGAGGCCCAGCUGGGACUGUGUGCUCCCGGCCUUCUAGCCCCACAGCCCACAGACAUUGGUCUUGAGAGUGGAAUUCUCGGGUGCCAA | 0.437
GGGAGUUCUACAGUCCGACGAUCACCAUGUCCCCUCUGCACCGUGACUUGGUGAUGGCUUUGUGGACAUGGCUGAAGCUGGAUGAGAUGUCCAGGAGUGCUCAUACAGCGACUGACGUAAGGACCCCCGACCGUGGAAUUCUCGGGUGCCAA | 0.73
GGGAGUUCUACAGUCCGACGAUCAACUCCUGGAUGGUAACCAUCUCUGGAGUGCAGCGCUUGCUGCAGUGGAAAUGAUCAGGAAUACUGACCGUGUUUCUCUUGCCUCCGAGGUUCUUGGGCACACUCUAUAGUGGAAUUCUCGGGUGCCAA | 0.254
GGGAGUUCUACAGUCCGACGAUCGUGUACCAUCUCUGCCUCCUCUCCUUUGUACCCUGCCUUCUGGCUGUAUGGCUUACAUCCUGGAAAUUACCUGAUAAUAAAGCAAGUAAAGGUGUAAGGUUUCCUAAGGGUGGAAUUCUCGGGUGCCAA | 0.442
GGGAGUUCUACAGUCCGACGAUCGAUGGGGGGAACGGACAGAUAUUCCCAUCUUGGAGGUCAUCCAUUAGGAAUUAAAUUCUCCAGCUUCCUCUUGGCUCCUUCCUGACUUGUUAGCAGUUGCAGAUGUGACAUGGAAUUCUCGGGUGCCAA | 1.27
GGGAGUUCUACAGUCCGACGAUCUCCUAAGCGUUACAUGGUUGUGACUAUGGAAACUCCAGUUAAGACAGGAUCUUAUCAGAGGUGGACAACGUGAAGAUUUCCUUUUCCAUUUUCAAUAAACUUUGGAACAAUGGAAUUCUCGGGUGCCAA | 0.357
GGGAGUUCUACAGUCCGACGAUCUUUUUGUAGUCAGUGUUAAUAAAACGGAUCCUGUUUGGGCCUUCAUUGUUAAGGUGGACUUCAUGGCCACUGGAAGGUCUGUUUUGGUGUUACCUGAGUGUGACACAGGCUGGAAUUCUCGGGUGCCAA | 0.353

Block 3 — method: protein binding microarray; form: double-stranded DNA, one strand shown; sample: in vitro; concentration: not given; baseline: not given; reading: higher = stronger binding
Target: Histone acetyltransferase KAT6A, winged helix 1, GST fusion (KAT6A, Homo sapiens, UniProt Q92794, residues 1-85)
Setting: 8-mer, flanks averaged, mean of 2 arrays, mostly near background
Construct (chain): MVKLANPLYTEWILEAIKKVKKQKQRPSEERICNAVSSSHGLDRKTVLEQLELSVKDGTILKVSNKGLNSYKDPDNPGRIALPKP
Sequence | E-score
CTCAGGAC | -0.111
GACATACA | 0.0233
CGCAGACC | 0.237
ACTTCTGC | 0.016
AGAAGCCA | -0.0899
AGTGTTGG | -0.106
GCGAAGCC | 0.219
CCTACGCG | 0.288
CCAACTTC | -0.177
GAAGAAAA | -0.216
GGACCCTA | -0.193
ACATGACC | 0.0964
CATTCTCA | -0.0918
CCGCCCTC | 0.33
GATTAAAA | -0.0905
CTTGTCGA | -0.0622
CGTTTGCA | -0.0264
CGAGAGCC | 0.0251
AGGGTCCC | -0.0547
CTAATAAG | -0.136
CAGGGGCG | 0.151
GATAGAAA | -0.0944

Block 4 — method: RNA Bind-n-Seq; form: RNA; sample: in vitro; concentration: 20 nM; setting: 6-mer, flanks averaged, single round; added: 150 mM LiCl; baseline: input library; reading: higher = stronger binding
Target: TAR DNA-binding protein 43, full length, His tag (TARDBP, Homo sapiens, UniProt Q13148, residues 1-414)
Sequence | 6-mer enrichment (R)
UAUCUA | 0.876
CUGUGA | 0.953
UUUAAC | 0.968
UACUGG | 0.916
GGGGUU | 1.25
CUCCAC | 0.924
GGUGUA | 1.31
GUACGA | 0.936
UAGAGA | 0.946
CAGACA | 0.819
GUGCAG | 1.13
GCUGAC | 0.902
GAAUUU | 0.963
AGCACG | 0.888
GAUCUA | 0.836
UCUAUU | 1.01
AUUACC | 0.917

Block 5 — method: protein-binding microarray; form: double-stranded DNA, one strand shown; sample: in vitro; concentration: 2540 nM top; setting: 60-bp whole probe; added: salmon DNA 0.4 mg/ml; baseline: random background probes; reading: higher = stronger binding; constant ends, left off below: GCCTAGCAC … GTCTTGATTCGCTTGACGCTGCTG
Target: Interferon regulatory factor 3, full length, phosphomimetic (IRF3, Homo sapiens, UniProt Q14653, residues 1-427, S386D/S396D/S398D/S402D/T404D/S405D)
UniProt Q14653, sequence (whole entry, unmodified, looked up): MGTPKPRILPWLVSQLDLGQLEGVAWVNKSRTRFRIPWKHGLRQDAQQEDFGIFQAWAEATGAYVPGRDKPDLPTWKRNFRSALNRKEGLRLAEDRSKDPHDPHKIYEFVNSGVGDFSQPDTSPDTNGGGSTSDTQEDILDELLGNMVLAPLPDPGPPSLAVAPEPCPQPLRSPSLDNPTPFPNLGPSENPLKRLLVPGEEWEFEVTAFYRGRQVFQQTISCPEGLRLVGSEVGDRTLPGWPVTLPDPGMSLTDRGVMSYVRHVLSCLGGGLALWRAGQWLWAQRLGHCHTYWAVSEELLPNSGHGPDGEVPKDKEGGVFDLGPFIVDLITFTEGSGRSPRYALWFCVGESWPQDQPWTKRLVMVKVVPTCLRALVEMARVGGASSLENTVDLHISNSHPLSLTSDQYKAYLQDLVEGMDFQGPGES
Sequence | fitted relative affinity
GACGGTTTCCTTTCCCAGACGTGCTAG | 9.86 z-score
GACGGACTGGGTCTCGGAACGTGCTAG | -0.485 z-score
GACAGACTGGGACTGGGGACGTGCTAG | -0.684 z-score
TCTCTGCTACCCTCTGAAAGTGTGCTA | 0.0722 z-score
TTAGATCTCCTACTGCTTTAGTGCTAG | 0.221 z-score
CTCTGGGGGGTGGGATGAAGGTGCTAG | 0.27 z-score
TTATGACTGGGGACTGGGTTAGTGCTA | -0.696 z-score
GACGGTATCCTTCTCCTGTCGTGCTAG | 7.86 z-score
TCACATTCCAATTCTTTTACTGTGCTA | 3.48 z-score
CACGGTATCGGGTTTCGGGACGTGCTA | 2.79 z-score
GACGGACTGGACTTTCGGGACGTGCTA | 0.0475 z-score
TAAGGTATCCTTCTCCTTTAGTGCTAG | 7.35 z-score
TTAGGACTAGACACTGGGTTAGTGCTA | -0.639 z-score
TTAGGAATCCTTCTCCTTTAGTGCTAG | 3.82 z-score
TTAGATATCGGTCTCGGTTAGTGCTAG | 1.72 z-score
GACGGTATACTTCTCCTGACGTGCTAG | 0.948 z-score
GAAGGTATCGGGACTGGGGACGTGCTA | 1.04 z-score
TTAGGTATCCTTAGCCTTTAGTGCTAG | 1.75 z-score
TTAGGTCTCCTTTTTCTTTAGTGCTAG | 4.7 z-score
GACGGTATCCTTCTCCTTACGTGCTAG | 7.02 z-score
TTAGATTTCACACTGGATTAGTGCTAG | 0.785 z-score
